# Experimental data pooled from the literature.
# Compare with care: the assays were run in different laboratories. Several values in a cell are separate wells, animals, samples, runs or records. ± gives the spread as reported.
# TFEB: Transcription factor EB (TFEB, Homo sapiens, UniProt P19484)
# UniProt P19484, sequence (whole entry, looked up): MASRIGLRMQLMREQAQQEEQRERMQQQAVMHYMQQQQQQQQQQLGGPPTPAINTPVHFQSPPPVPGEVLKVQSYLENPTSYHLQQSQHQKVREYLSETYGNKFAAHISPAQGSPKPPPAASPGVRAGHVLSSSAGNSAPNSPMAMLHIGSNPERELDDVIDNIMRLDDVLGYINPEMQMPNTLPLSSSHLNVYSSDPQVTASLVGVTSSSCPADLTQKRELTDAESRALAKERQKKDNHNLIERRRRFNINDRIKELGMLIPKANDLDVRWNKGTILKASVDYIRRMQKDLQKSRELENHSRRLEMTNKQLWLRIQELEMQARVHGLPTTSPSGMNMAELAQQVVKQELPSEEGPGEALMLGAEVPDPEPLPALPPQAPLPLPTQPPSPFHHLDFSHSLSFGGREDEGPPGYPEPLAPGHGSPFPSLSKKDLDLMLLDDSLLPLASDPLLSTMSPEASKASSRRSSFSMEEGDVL
# odorant-binding protein 24: odorant-binding protein 24 (Monochamus alternatus, UniProt A0A1I9HZN3)
# HRH4: Histamine H4 receptor (HRH4, Homo sapiens, UniProt Q9H3N8)
# UniProt Q9H3N8, sequence (whole entry, looked up): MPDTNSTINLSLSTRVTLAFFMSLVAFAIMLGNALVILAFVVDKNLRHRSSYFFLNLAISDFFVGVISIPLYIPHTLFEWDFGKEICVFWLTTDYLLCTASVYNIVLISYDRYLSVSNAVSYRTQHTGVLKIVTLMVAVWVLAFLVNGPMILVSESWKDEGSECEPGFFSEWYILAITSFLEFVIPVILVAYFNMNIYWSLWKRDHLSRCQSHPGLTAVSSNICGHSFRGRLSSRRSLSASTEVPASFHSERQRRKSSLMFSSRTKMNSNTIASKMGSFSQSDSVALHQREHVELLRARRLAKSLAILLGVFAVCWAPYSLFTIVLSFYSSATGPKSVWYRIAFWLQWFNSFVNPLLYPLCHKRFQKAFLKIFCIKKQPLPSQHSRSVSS
# UniProt P05186, sequence (whole entry, looked up): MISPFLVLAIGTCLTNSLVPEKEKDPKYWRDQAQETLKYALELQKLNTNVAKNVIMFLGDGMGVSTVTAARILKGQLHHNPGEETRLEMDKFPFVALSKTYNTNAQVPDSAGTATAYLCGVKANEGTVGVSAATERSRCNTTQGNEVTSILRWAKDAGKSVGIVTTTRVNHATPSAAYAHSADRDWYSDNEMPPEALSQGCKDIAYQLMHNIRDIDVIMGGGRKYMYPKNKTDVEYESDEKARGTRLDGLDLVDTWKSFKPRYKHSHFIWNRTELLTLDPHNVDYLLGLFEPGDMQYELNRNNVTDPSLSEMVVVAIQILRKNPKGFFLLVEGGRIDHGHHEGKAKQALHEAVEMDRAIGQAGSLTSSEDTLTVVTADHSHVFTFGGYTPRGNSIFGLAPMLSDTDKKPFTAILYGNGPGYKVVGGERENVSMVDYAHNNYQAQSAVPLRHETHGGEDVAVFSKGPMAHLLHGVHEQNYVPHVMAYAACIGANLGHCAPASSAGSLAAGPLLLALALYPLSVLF
# UniProt P35372, sequence (whole entry, looked up): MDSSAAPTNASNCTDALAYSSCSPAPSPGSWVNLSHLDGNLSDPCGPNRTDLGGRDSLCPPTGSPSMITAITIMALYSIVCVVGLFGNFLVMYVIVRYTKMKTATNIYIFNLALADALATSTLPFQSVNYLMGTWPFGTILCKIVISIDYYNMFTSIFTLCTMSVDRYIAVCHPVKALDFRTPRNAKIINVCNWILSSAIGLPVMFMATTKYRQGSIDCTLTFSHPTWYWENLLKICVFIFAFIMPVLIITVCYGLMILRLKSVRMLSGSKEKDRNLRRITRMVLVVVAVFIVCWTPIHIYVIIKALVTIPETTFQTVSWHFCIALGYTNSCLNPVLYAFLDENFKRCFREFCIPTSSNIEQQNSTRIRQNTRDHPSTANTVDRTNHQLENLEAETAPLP
# UniProt Q08460, sequence (whole entry, looked up): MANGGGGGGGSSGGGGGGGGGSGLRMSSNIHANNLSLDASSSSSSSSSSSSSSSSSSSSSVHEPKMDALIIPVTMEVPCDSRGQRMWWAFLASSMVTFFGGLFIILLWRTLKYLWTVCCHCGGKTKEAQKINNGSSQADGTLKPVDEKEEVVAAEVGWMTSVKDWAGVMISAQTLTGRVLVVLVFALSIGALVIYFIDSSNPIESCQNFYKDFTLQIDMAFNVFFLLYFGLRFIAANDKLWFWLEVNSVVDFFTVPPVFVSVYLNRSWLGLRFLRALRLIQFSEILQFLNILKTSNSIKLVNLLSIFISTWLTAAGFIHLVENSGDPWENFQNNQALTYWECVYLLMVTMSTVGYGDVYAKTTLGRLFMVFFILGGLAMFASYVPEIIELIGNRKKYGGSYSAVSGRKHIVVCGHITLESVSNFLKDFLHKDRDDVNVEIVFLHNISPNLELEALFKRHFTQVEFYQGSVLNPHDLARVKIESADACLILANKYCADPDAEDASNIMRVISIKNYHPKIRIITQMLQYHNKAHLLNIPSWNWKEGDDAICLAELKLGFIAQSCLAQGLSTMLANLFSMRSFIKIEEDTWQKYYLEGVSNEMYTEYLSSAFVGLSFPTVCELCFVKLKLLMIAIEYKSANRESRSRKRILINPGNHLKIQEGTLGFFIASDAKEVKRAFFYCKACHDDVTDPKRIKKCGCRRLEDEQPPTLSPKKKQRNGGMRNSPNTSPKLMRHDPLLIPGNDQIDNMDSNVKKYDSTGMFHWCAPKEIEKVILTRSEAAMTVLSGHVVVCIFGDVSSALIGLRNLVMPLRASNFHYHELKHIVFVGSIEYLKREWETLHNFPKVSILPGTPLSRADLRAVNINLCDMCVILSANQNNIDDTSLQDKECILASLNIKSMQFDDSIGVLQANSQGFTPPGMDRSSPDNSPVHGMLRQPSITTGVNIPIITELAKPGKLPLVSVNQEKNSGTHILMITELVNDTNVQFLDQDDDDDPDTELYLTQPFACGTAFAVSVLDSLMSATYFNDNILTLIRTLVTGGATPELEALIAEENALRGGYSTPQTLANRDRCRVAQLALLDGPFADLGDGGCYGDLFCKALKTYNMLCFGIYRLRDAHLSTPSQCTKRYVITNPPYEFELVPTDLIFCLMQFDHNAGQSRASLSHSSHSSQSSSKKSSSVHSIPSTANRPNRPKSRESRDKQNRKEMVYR
# UniProt P63086, sequence (whole entry, looked up): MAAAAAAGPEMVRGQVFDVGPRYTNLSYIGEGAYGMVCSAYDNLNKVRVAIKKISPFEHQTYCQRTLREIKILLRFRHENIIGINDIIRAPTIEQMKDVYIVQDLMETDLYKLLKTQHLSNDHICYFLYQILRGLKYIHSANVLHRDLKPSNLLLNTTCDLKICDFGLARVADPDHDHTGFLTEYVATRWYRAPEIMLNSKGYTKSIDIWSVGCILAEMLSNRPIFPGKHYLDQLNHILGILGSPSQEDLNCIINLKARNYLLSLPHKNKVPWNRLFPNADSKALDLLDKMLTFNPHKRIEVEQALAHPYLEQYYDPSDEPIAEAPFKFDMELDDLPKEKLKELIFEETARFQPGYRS
# UniProt Q01727, sequence (whole entry, looked up): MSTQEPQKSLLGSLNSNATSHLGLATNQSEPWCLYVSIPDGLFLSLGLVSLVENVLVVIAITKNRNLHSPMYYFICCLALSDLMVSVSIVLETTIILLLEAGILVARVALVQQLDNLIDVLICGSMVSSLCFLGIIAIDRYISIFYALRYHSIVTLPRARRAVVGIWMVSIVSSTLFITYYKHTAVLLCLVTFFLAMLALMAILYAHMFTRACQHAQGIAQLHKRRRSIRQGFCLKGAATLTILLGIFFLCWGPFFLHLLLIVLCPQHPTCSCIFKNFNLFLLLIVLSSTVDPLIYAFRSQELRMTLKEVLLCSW
Substance,target,test,system,conditions,how to read,quantity,value
CC[N+](CC)(CC)CC,"Kcnma1 (Mus musculus, UniProt Q08460)","ion current, blocker, inside-out patch, cytosolic",,"open-channel block, with: Ca2+ 300 µM",,Kb,49000 ± 3200 µM
CC(=O)OC[C@H]1O[C@@H]([S-])[C@H](OC(C)=O)[C@@H](OC(C)=O)[C@@H]1OC(C)=O.CCP(CC)CC.[Au+],TFEB,"nuclear translocation, activator, GFP-TFEB imaging",AML12,2 h,baseline: Torin 1,AC50,2.35 µM
O=c1cc(-c2cccc3ccccc23)[nH][nH]1,"Alkaline phosphatase, tissue-nonspecific isozyme (ALPL, Homo sapiens, UniProt P05186)","enzyme activity, inhibitor, colorimetric OD405",,"resynthesised dry powder, with: 0.5 mM pNPP",,IC50,45.8 µM
Nc1ncnc2c1ncn2[C@@H]1O[C@H](COP(=O)(O)OP(=O)(O)O)[C@@H](O)[C@H]1O,"Mitogen-activated protein kinase 1 (Mapk1, Rattus norvegicus, UniProt P63086)",ATP-competitive component,,"with: substrate Sub-F 15 µM, varied MgATP",,Ki,132 ± 28 µM
cholecystokinin octapeptide,PKCθ rat,kinase activity,,"10 nM, immunoprecipitated enzyme, with: PKC substrate peptide",baseline: untreated,remaining activity,139 ± 4%
CC1=CCC(=C(C)C)CC1,odorant-binding protein 24,competitive fluorescence binding,,"pH 7.4, with: 1-NPN",,Ki,< 20 µM and 13.7 µM
CC(=O)N[C@@H](CO)C(=O)N[C@@H](Cc1ccc(O)cc1)C(=O)N[C@@H](CO)C(=O)N[C@@H](C)C(=O)N[C@@H](CCC(=O)O)C(=O)N[C@@H](Cc1c[nH]cn1)C(=O)N[C@H](Cc1ccccc1)C(=O)N[C@@H](CCCNC(=N)N)C(=O)N[C@@H](Cc1c[nH]c2ccccc12)C(=O)NCC(=O)N[C@@H](CCCCN)C(=O)N1CCC[C@H]1C(=O)N[C@H](C(N)=O)C(C)C,"Melanocyte-stimulating hormone receptor (Mc1r, Mus musculus, UniProt Q01727)",,,,,EC50,0.00011 ± 2e-05 µM
CC(C)[C@@H](CN1CCC(c2ccsc2)CC1)NC(=O)[C@H]1Cc2ccc(O)cc2CN1,"Mu-type opioid receptor (OPRM1, Homo sapiens, UniProt P35372)",antagonist,,with: DAMGO,,Kb,0.00393 ± 0.00073 µM
CC(C)[C@H](N)C(=O)O,"Methyl-accepting chemotaxis protein Tlp3 (Campylobacter jejuni, UniProt Q0P864)","binding, ITC",,,,Kd,2500 ± 166 µM
CC[C@@H](C(=O)[C@@H](C)[C@@H](O)[C@H](C)CCc1ccc(C)c(O)c1C(=O)O)[C@H]1O[C@](CC)([C@H]2CC[C@](O)(CC)[C@H](C)O2)C[C@@H]1C,TFEB,"nuclear translocation, activator, GFP-TFEB imaging",AML12,2 h,baseline: Torin 1,AC50,6.05 µM
N=C(N)NCCCCCCCCCCCCNC(=N)NCCCc1cnc(N)s1,HRH4,"ligand displacement, radioligand",,cell membranes,,Ki,0.339 µM
Cc1nc(N)sc1CCCNC(=N)NCCCCCCCCNC(=N)NCCCc1sc(N)nc1C,HRH4,"GTPγS binding, antagonist",,cell membranes,,Kb,148 µM
C=C(C)[C@@H]1CC=C(C)CC1,odorant-binding protein 24,competitive fluorescence binding,,"pH 7.4, with: 1-NPN",,Ki,> 50 µM
